Published values collected from several papers.
A part holds a random share of what one study measured.

Study 1 — target: Cln2 (Saccharomyces cerevisiae); read-out: peptide binding; method: competitive growth sequencing; molecule type: peptide; organism: Saccharomyces cerevisiae; strain: unfused Cln2 strain; setting: peptide tiling library; direction: direction not given
Sequence | enrichment score
EHCRVLFLDHVMYTIH | -0.89
AKRSLGFLPQPVPL | -0.737
PHKTFRKLRLFDTPHT | -1.41
ATNSSHTDAHEILVSD | 0.309
RTEALEQGGLPKKLIF | 0.59
LENIEPLQVSFAVLSS | 1.25
KVRRNLFNQELLSP | -0.466
AEHPKPSACRNLFGPV | -0.329
ASVLSKPIFCFVKD | 0.361
VKRLNFRSEEME | -0.409
GTPKRCLDLSNLSSGE | -0.0495
RQVRRDLFAF | -1.23
VLPGGVPSPGASLTSM | -0.35
SNFFDVIKQLFSDEKN | -0.52

Study 2 — method: universal PBM; molecule type: double-stranded DNA, one strand shown; sample: in vitro; tested at: 600 nM; direction: higher = stronger binding
Target: Sal-like protein 4, full length isoform A (SALL4, Homo sapiens, UniProt Q9UJQ4, residues 1-1053)
Chain of UniProt Q9UJQ4 (whole entry, looked up): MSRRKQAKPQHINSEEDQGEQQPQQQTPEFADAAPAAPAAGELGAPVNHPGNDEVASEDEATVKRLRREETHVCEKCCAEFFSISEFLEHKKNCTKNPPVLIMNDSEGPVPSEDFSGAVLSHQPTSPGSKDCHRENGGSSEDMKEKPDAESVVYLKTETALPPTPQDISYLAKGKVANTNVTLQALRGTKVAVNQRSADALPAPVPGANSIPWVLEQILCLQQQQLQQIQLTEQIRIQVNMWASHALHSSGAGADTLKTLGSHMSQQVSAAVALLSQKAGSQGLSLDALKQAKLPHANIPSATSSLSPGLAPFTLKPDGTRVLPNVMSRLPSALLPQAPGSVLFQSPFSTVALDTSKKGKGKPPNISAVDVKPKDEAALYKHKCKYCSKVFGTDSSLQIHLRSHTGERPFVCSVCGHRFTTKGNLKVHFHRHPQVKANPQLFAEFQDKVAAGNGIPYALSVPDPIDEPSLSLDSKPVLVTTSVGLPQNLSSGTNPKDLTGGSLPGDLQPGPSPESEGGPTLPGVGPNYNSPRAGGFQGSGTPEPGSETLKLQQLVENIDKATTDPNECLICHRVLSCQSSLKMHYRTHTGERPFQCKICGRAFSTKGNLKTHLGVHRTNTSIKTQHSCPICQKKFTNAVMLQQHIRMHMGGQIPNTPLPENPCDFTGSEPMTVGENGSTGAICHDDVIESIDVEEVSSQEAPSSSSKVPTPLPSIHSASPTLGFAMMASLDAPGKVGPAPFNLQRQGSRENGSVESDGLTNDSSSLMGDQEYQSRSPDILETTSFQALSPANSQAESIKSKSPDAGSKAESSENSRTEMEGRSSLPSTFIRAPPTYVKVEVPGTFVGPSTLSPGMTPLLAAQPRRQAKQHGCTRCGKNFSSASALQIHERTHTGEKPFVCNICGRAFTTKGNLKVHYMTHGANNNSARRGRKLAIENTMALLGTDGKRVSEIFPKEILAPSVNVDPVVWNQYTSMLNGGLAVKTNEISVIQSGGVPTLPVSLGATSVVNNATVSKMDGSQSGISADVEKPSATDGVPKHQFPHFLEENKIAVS
Setting: 8-mer, flanks averaged, mean of replicates
Oligonucleotide | E-score
CGCATAAA | 0.236
CTAATCCC | 0.00656
AAAGACTC | -0.036
AAATTTCG | 0.155
CCTTGGAG | -0.0947
ACATAGAG | 0.0348
ACAAATGT | 0.256
CTCTAGTC | -0.183
ACGAGCTG | -0.126
CATCCCCG | -0.286
GCCAGGGA | -0.308
GCATTGGC | -0.143
AGCGTTAA | 0.0336
ATGTTAAT | 0.279
ACGCCTGC | -0.282
CGGTTACG | -0.161
AGACGCCA | -0.162

Study 3 — method: RNA Bind-n-Seq; molecule type: RNA; sample: in vitro; tested at: 365 nM; reference: no-protein control; direction: higher = stronger binding
Target: RNA binding protein fox-1 homolog 2, RRM domain, GST-SBP tag (RBFOX2, Homo sapiens, UniProt O43251-10, residues 100-194)
Setting: natural RNA segment, single round, ends assumed
Constant ends, left off below: GGGAGUUCUACAGUCCGACGAUC … UGGAAUUCUCGGGUGCCAA
Residues (chain): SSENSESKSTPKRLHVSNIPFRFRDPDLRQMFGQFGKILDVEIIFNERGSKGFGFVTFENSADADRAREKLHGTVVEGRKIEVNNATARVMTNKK
Oligonucleotide | RBNS enrichment (R)
CUGCCUCCUGUCCUUGUCGCUGUGCCCUGGUUUCCCUCCUCGGGCUUCUCGCCCCUCAGUGGUUUCCUCGGCCCUCCUGGGUUUACUCCUUGAGUUUUCCUGCUGCGAUG | 0.305
CCGAGUGCUCGAAUGGUGUAUUUACAAUGUGAUUCUAGUCUCUUCUUCAGGGAACAUGCCUGCAUUACAUGAAAUUCCAUGCGCCCAGCUGGUUAUUUCUUGUCUUCCAU | 0.344
AAUGUGAUAAGGACUUUAAAAAAGAAGCAUGUAUGUUUUUUACUGUUUGUAAGAAGUACUUUCGUUAAUCUUGCUGCUUAUGUGUCAAUUUAGUGGAAAAGAAAUCCCUU | 10.1
CCUCGCCAUGUGCAUUGCCACCUCUGUUGUCCAGACGGGCACAUGCAGCACGCUGUGGUGACAGCCCGUCGGCACGGGAUUUGUACCGCUGUGCCCGUGUCAGCUCCUGG | 0.548
AACCCGAAUCUGAGAAGGAAUUGCGUCAUGUAAGGGAAGCUGGAAUUAAGGGAGCUGAGCCAGUCAUGGUUGUGGCGUGUGAGUCAGGAGACCUAGGUUUCAGCCCCUCU | 3.16
CACUUUGCGCUCAAUGGACUUUGUAAAUUCUCAUCAGCUGUUGUAGAAGUUCCUCUGCCUGGAGCUGUCAUCUCAGCCGCUCCCUUAGAAAGUGCCCUUCAACGGACCCU | 0.218
GAUGGACAGGAAGGCUGGGAGAACUAACAGUUGGAUACUGAAGUUGCUACUGCGGACCUGUGGCUCCCUUGGCCAGCCAUGUUUUGGGAAAGAGUUCACAUCUUAGGUUU | 0.646
AGCAAACAACCCCUGCCCGUGGGCCAAUCUACUUGAAGUUACUCGGACAAAGACCCCAAAGUGGGGCAACAACUCCAGAGAGGCUGUGGGAAUCUUCAGAACCCCCCUGU | 0.448

Study 4 — method: protein-binding microarray; molecule type: double-stranded DNA, one strand shown; sample: in vitro; tested at: 2200 nM top; setting: 60-bp whole probe; added: salmon DNA 0.4 mg/ml; reference: random background probes; direction: higher = stronger binding; constant ends, left off below: GCCTAGCAC … GTCTTGATTCGCTTGACGCTGCTG
Target: Interferon regulatory factor 7, full length, phosphomimetic (IRF7, Homo sapiens, UniProt Q92985, residues 1-503, S471D/S472D/S475D/S476D/S477D/S483D/S484D/S487D)
Chain of UniProt Q92985 (whole entry, unmodified, looked up): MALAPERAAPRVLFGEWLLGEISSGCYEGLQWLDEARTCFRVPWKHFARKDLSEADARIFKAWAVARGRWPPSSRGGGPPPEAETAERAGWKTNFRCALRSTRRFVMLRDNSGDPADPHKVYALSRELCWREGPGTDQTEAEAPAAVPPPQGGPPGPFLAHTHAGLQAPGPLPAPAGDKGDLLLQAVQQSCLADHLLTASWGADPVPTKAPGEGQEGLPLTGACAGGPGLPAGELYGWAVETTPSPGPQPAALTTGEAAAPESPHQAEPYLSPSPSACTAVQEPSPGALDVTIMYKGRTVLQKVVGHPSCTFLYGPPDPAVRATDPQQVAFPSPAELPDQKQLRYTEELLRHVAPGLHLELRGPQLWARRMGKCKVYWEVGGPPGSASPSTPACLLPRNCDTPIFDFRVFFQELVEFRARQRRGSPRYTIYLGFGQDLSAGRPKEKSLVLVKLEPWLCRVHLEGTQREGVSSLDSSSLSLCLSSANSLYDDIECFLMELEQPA
Oligonucleotide | fitted relative affinity [z-score]
GACGATGTCGGGTTTCGAGACGTGCTA | 1.1
TTAGATTTCAGACTGTATTAGTGCTAG | 0.212
GACGGACTGGGTCACGGGACGTGCTAG | -1.19
TTAGATATCGGGACTGGATTAGTGCTA | -0.373
TCAAATTTAGAAAATGGAACTGTGCTA | -1.25
GAAGATTTCAGTCTCGAGACGTGCTAG | 0.513
TTAGATTTCAGTCTAGATTAGTGCTAG | 0.0241
TTAGGTATCGGTTTCGGTAAGTGCTAG | 3.79
TCACTTTCCCAGCCTGGGACTGTGCTA | 2.68
TTAGGACTGCTACTGCTTAAGTGCTAG | -0.219
TTAGGAATGGACTTTCGGTTAGTGCTA | 4.88
GACGGACTGGGTATTGGGACGTGCTAG | -0.937
TTAGGACTTGGTCTCGGTTAGTGCTAG | 0.442
TCAAATATTCATTTTATACTGTGCTAG | 0.578
TTAGGTCTCGGACTGGGCTAGTGCTAG | -0.662
GATGATATCAGTATCGAGACGTGCTAG | 0.157
TCACCCCTCCCCCTCAGACTGTGCTAG | 0.169
GACGGTTTCGTCTATCGGGACGTGCTA | 3.12

A few entries again (study 1):
Sequence | enrichment score
SNFFDVIKQLFSDEKN | -0.52
ATNSSHTDAHEILVSD | 0.309
RQVRRDLFAF | -1.23
AKRSLGFLPQPVPL | -0.737
RTEALEQGGLPKKLIF | 0.59
VKRLNFRSEEME | -0.409
AEHPKPSACRNLFGPV | -0.329
LENIEPLQVSFAVLSS | 1.25
GTPKRCLDLSNLSSGE | -0.0495
